Experimental data gathered from unrelated publications.
Compare with care: the assays were run in different laboratories.
Cell line: HOP-62
Technique: SRB

Structure (SMILES) = CC(Cc1ccc(Cl)cc1)=C(c1ccc(Cl)cc1)c1ccc(OCCN(C)C)cc1; assay = cell growth or viability; measurement = GI50; value = 6.07 µM
Structure (SMILES) = O=C(CSc1nc(-c2ccccc2)n[nH]1)N1CCC(=C2c3ncccc3CCc3cc(Cl)cc(Br)c32)CC1; assay = cell growth or viability; measurement = IC50; value = > 120 µM
Structure (SMILES) = CC(=C(c1ccc(O)cc1)c1ccc(Cl)cc1)c1ccc(Cl)cc1; assay = cell growth or viability; measurement = GI50; value = 0.59 µM
Structure (SMILES) = COc1cc(CNC(=O)C[C@H](C)CCC=C(C)C)ccc1OCc1cn(-c2ccccc2Cl)nn1; setting = 10 µM, 48 h; measurement = growth percent; value = 79.2%
Structure (SMILES) = O=C(CN1CCC(c2noc3cc(F)ccc23)CC1)N1CCC(=C2c3ncccc3CCc3cc(Cl)cc(Br)c32)CC1; assay = cell growth or viability; measurement = IC50; value = 120 µM
Structure (SMILES) = CC(=O)OC[C@H]1O[C@@H](Sc2sc(C(=O)c3ccc(Br)cc3)c(N)c2-c2nc3ccccc3s2)[C@H](OC(C)=O)[C@@H](OC(C)=O)[C@H]1OC(C)=O; setting = 10 µM, 48 h; how to read = baseline: untreated; measurement = growth; value = 91.1%
Structure (SMILES) = COc1cc(CNC(=O)C[C@H](C)CCC=C(C)C)ccc1OCc1cn(-c2ccccc2F)nn1; setting = 10 µM, 48 h; measurement = growth percent; value = 46.7%
Structure (SMILES) = Clc1cc(Br)c2c(c1)CCc1cccnc1C2=C1CCNCC1; assay = cell growth or viability; measurement = IC50; value = 27 µM
Structure (SMILES) = COc1cc(CNC(=O)C[C@H](C)CCC=C(C)C)ccc1OCc1cn(-c2ccc(Cl)c(Cl)c2)nn1; setting = 10 µM, 48 h; measurement = growth percent; value = 95.7%
Structure (SMILES) = CC/C=C\C/C=C\C/C=C\C/C=C\C/C=C\C/C=C\CCC(=O)Nc1ccn(C2OC(CO)C(O)C2(F)F)c(=O)n1 (stereo not drawn); assay = cell growth or viability; measurement = GI50; value = 0.0186 µM
Structure (SMILES) = Nn1c(SCC(=O)N2CCC(=C3c4ncccc4CCc4cc(Cl)cc(Br)c43)CC2)nnc1-c1ccccc1; assay = cell growth or viability; measurement = IC50; value = 53 µM
Structure (SMILES) = CC(=O)OC[C@H]1O[C@@H](Sc2sc(C(=O)c3ccc(C)cc3)c(N)c2-c2nc3ccccc3s2)[C@H](OC(C)=O)[C@@H](OC(C)=O)[C@@H]1OC(C)=O; setting = 10 µM, 48 h; how to read = baseline: untreated; measurement = growth; value = 61.5%

A few entries again:
Structure (SMILES) = COc1cc(CNC(=O)C[C@H](C)CCC=C(C)C)ccc1OCc1cn(-c2ccc(Cl)c(Cl)c2)nn1; setting = 10 µM, 48 h; measurement = growth percent; value = 95.7%
